Measured values collected from several papers.
Every numbered part comes from another study and shows a few of its results, in no order. Several values in a cell are separate wells, animals, samples, runs or records.
Sequence of UniProt P25098 (whole entry, looked up): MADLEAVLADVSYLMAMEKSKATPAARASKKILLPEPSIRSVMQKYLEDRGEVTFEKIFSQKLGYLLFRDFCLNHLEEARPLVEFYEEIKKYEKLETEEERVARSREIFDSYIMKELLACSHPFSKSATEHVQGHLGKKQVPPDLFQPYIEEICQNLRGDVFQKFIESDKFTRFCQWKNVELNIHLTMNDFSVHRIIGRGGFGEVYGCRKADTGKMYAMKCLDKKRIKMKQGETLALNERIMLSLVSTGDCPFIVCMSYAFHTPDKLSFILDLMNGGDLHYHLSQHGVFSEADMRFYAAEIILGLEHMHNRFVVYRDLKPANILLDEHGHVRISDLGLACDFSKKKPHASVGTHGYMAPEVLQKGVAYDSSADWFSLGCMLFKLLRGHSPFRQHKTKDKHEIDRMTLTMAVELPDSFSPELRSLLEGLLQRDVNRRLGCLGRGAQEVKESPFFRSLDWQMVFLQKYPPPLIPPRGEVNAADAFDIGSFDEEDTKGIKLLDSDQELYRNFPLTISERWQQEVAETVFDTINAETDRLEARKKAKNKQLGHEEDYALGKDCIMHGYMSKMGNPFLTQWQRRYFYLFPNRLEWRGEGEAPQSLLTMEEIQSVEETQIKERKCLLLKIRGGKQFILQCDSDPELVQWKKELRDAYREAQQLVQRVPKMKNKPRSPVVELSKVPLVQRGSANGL
Sequence of UniProt P78368 (whole entry, looked up): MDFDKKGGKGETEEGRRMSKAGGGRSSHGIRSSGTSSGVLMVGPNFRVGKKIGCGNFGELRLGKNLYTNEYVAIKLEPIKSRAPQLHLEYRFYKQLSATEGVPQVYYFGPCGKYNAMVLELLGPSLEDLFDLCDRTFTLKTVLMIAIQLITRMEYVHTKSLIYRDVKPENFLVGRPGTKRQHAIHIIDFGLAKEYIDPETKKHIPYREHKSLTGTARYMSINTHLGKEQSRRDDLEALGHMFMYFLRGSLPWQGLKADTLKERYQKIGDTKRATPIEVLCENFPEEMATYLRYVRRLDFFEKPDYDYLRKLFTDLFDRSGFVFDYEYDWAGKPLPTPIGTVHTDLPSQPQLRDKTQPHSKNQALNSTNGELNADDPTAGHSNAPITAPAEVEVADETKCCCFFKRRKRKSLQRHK
Sequence of UniProt O95747 (whole entry, looked up): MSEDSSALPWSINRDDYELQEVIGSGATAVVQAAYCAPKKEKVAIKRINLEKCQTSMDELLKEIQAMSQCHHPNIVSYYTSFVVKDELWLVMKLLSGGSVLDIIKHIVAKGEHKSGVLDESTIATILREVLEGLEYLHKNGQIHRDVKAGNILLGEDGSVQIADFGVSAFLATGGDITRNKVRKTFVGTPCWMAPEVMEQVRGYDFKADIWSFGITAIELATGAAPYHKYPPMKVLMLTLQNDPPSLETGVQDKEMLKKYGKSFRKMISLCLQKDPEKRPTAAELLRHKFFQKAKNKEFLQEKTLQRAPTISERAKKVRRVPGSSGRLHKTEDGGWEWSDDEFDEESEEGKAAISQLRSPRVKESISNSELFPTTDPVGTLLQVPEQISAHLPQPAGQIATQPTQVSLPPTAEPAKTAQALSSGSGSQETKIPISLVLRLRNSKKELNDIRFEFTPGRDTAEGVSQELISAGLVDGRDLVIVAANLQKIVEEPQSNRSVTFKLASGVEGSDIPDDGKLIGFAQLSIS
Sequence of UniProt Q8TBX8 (whole entry, looked up): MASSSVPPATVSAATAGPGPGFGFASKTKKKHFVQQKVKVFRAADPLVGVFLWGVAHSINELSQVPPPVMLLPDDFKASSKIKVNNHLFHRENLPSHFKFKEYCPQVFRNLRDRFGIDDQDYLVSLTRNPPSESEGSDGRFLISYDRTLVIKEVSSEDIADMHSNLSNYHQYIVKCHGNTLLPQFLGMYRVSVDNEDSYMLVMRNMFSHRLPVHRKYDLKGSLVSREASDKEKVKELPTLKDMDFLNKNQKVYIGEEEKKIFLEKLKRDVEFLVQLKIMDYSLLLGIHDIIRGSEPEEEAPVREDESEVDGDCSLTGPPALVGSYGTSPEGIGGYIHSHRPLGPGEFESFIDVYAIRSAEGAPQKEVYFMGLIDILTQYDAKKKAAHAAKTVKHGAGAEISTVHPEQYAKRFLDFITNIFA
Sequence of UniProt P0C1S8 (whole entry, looked up): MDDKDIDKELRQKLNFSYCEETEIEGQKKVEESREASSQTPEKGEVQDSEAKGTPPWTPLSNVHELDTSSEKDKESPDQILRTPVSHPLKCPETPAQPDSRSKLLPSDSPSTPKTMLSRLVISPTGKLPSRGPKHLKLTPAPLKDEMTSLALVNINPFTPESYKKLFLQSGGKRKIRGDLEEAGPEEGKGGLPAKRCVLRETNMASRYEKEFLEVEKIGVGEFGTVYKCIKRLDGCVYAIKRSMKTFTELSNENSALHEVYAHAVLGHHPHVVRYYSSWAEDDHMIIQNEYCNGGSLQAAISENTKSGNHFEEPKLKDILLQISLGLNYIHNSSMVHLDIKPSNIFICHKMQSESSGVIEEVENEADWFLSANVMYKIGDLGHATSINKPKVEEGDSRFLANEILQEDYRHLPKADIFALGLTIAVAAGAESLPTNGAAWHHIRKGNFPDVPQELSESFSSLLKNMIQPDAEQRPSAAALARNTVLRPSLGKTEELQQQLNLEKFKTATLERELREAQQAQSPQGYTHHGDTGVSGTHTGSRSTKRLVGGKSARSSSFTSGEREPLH
Sequence of UniProt Q00535 (whole entry, looked up): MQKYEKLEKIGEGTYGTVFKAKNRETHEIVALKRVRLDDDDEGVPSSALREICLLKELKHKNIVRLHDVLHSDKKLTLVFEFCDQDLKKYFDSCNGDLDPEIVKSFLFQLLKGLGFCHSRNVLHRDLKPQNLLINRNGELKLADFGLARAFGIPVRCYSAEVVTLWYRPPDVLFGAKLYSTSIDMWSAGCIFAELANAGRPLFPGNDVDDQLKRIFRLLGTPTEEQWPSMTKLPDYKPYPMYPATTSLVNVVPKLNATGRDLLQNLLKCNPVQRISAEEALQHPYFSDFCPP

Block 1 — read-out: thermal unfolding; method: differential scanning fluorimetry; tested at: 5.5 µM; reading: higher = more unfolded; quantity: SYPRO Orange fluorescence
SMILES: C[C@@H]1CN(c2ccc(-c3cc(C(=O)NCCOCCOCCOCCOCCNC(=O)/C=C/c4[nH]cc(C(=O)N[C@@H](CC(N)=O)c5ccc(F)c(Cl)c5)c4-c4ccc(Cl)cc4F)ccc3F)cc2NC(=O)c2c[nH]c(=O)cc2C(F)(F)F)C[C@H](C)N1C
WDR5: WD repeat-containing protein 5 (WDR5, Homo sapiens, UniProt P61964)
DCAF1: DDB1- and CUL4-associated factor 1 (DCAF1, Homo sapiens, UniProt Q9Y4B6)
Sequence of UniProt Q9Y4B6 (whole entry, looked up): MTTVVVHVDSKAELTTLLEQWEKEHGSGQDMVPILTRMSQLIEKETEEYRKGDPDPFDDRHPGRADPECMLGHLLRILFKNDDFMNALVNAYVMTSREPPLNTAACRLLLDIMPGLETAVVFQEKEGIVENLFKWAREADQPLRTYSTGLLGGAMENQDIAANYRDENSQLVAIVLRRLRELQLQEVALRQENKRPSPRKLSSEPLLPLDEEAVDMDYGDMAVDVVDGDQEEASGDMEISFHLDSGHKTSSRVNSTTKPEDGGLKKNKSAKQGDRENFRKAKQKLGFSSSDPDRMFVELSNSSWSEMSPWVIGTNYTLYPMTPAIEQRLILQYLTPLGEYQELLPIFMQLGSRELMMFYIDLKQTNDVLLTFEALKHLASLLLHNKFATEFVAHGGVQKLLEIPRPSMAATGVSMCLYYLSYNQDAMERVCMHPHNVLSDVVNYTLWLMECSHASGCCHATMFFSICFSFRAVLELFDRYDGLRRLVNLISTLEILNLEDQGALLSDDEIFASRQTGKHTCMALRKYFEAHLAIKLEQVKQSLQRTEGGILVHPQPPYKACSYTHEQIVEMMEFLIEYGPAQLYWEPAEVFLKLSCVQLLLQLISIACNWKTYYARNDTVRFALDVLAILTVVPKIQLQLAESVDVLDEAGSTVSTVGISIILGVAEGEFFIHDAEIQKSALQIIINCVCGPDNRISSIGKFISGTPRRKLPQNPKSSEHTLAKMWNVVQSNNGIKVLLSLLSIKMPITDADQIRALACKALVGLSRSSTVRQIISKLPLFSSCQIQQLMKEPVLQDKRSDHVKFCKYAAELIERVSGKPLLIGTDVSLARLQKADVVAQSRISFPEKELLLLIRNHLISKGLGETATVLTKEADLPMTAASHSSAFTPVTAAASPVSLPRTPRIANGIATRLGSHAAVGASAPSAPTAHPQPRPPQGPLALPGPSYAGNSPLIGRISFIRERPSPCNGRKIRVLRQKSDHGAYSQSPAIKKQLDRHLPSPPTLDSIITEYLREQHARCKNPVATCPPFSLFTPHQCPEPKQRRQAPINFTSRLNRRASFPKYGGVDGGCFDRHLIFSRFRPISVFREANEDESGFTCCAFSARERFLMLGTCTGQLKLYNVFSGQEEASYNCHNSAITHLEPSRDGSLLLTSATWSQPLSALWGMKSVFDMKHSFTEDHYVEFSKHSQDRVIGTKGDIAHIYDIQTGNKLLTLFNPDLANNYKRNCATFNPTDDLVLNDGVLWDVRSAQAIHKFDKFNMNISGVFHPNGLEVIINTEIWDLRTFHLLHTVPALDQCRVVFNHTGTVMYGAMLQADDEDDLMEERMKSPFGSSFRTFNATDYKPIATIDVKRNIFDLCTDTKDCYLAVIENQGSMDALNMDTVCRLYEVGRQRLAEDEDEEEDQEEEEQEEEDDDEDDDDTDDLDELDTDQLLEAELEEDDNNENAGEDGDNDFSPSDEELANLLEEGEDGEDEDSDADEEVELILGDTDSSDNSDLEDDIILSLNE
target = WDR5; setting = 56.01 °C; value = 16800 a.u.
target = DCAF1; setting = 48.8 °C; value = 14600 a.u.
target = DCAF1; setting = 38.6 °C; value = 11100 a.u.
target = DCAF1; setting = 56.81 °C; value = 26500 a.u.
target = DCAF1; setting = 48.4 °C; value = 14500 a.u.
target = WDR5; setting = 63.41 °C; value = 14100 a.u.
target = WDR5; setting = 36.6 °C; value = 13500 a.u.
target = WDR5; setting = 59.21 °C; value = 15900 a.u.
target = DCAF1; setting = 46 °C; value = 13400 a.u.
target = WDR5; setting = 31.4 °C; value = 12800 a.u.
target = DCAF1; setting = 84.61 °C; value = 40700 a.u.

Block 2 — tested at: 1 µM; quantity: remaining binding
Structure (SMILES): CCC1(c2cccc(-c3cn(C)nc3C)c2)C2=C(Nc3n[nH]cc31)C(F)C(C)(C)CC2=O (single isomer, unassigned)
target = Casein kinase I isoform epsilon (CSNK1E, Homo sapiens, UniProt P49674); test = binding, competition with immobilised ligand; value = 87%
target = Cyclin-dependent kinase 5 (CDK5, Homo sapiens, UniProt Q00535); test = binding, competition with immobilised ligand; value = 96%
target = Mitogen-activated protein kinase kinase kinase 15 (MAP3K15, Homo sapiens, UniProt Q6ZN16); test = kinase binding, KINOMEscan; how to read = relative to: DMSO control; value = 90%
target = Phosphatidylinositol 5-phosphate 4-kinase type-2 gamma (PIP4K2C, Homo sapiens, UniProt Q8TBX8); test = kinase binding, KINOMEscan; how to read = relative to: DMSO control; value = 90%
target = Receptor-type tyrosine-protein kinase FLT3, autoinhibited (FLT3, Homo sapiens, UniProt P36888); test = binding, competition with immobilised ligand; value = 100%
target = Dual specificity mitogen-activated protein kinase kinase 4 (MAP2K4, Homo sapiens, UniProt P45985); test = kinase binding, KINOMEscan; how to read = relative to: DMSO control; value = 100%
target = Wee1-like protein kinase 2 (WEE2, Homo sapiens, UniProt P0C1S8); test = kinase binding, KINOMEscan; how to read = relative to: DMSO control; value = 100%
target = FLT3 ITD/F691L, human; test = KINOMEscan; value = 100%
target = Proto-oncogene tyrosine-protein kinase receptor Ret (RET, Homo sapiens, UniProt P07949); test = binding, competition with immobilised ligand; value = 92%
target = Fibroblast growth factor receptor 3 (FGFR3, Homo sapiens, UniProt P22607); test = binding, competition with immobilised ligand; value = 100%
target = Casein kinase I isoform gamma-2 (CSNK1G2, Homo sapiens, UniProt P78368); test = kinase binding, KINOMEscan; how to read = relative to: DMSO control; value = 99%
target = Macrophage colony-stimulating factor 1 receptor (CSF1R, Homo sapiens, UniProt P07333); test = kinase binding, KINOMEscan; how to read = relative to: DMSO control; value = 100%
target = Wee1-like protein kinase (WEE1, Homo sapiens, UniProt P30291); test = kinase binding, KINOMEscan; how to read = relative to: DMSO control; value = 100%
target = Ephrin type-A receptor 2 (EPHA2, Homo sapiens, UniProt P29317); test = kinase binding, KINOMEscan; how to read = relative to: DMSO control; value = 100%
target = Epidermal growth factor receptor (EGFR, Homo sapiens, UniProt P00533, G719S); test = binding, competition with immobilised ligand; value = 100%
target = Serine/threonine-protein kinase DCLK2 (DCLK2, Homo sapiens, UniProt Q8N568); test = kinase binding, KINOMEscan; how to read = relative to: DMSO control; value = 100%
target = Beta-adrenergic receptor kinase 1 (GRK2, Homo sapiens, UniProt P25098); test = kinase binding, KINOMEscan; how to read = relative to: DMSO control; value = 94%
target = Serine/threonine-protein kinase OSR1 (OXSR1, Homo sapiens, UniProt O95747); test = binding, competition with immobilised ligand; value = 100%
target = Serine/threonine-protein kinase B-raf (BRAF, Homo sapiens, UniProt P15056); test = binding, competition with immobilised ligand; value = 100%
target = Serine/threonine-protein kinase 16 (STK16, Homo sapiens, UniProt O75716); test = binding, competition with immobilised ligand; value = 94%

Block 3 — read-out: binding; method: HTRF; tested at: 0.46 nM; quantity: inhibition
Target: Membrane-associated tyrosine- and threonine-specific cdc2-inhibitory kinase (PKMYT1, Homo sapiens, UniProt Q99640)
Construct (Q99640 1-499): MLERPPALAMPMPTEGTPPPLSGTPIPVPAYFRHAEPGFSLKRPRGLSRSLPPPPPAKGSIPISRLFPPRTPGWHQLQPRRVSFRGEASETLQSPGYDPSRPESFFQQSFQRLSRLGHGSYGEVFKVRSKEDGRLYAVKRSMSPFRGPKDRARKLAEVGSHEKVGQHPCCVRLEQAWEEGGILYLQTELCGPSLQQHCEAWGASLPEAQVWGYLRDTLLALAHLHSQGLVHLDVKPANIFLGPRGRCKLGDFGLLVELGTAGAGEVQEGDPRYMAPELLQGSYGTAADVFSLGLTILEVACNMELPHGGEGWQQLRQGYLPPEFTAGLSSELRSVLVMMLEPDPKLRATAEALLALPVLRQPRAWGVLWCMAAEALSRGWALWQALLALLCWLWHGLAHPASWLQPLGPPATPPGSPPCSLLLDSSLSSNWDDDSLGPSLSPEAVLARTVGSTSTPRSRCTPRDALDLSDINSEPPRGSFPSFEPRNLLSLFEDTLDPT
Structure (SMILES) = Cc1ccc(O)c(C)c1-c1cnc2[nH]c(-c3cnc(N4CCC(CCN5CCN(c6ccc(N7CCC(=O)NC7=O)cc6F)CC5)CC4)nc3)cc2c1C#N; value = 9.61% and 1.74%
Structure (SMILES) = Cc1ccc(O)c(C)c1-c1cnc2[nH]c(-c3cnc(N4CCC5(CC4)CC(N4CCN(c6cc7c(cc6F)c(N6CCC(=O)NC6=O)nn7C)CC4)CO5)nc3)cc2c1C#N (racemic); value = 8.11% and 8.14%
Structure (SMILES) = Cc1ccc(O)c(C)c1-c1cnc2[nH]c(-c3cnc(N4CCC(CN5CCN(c6ccc(NC7CCC(=O)NC7=O)c(F)c6)CC5)CC4)nc3)cc2c1C#N (racemic); value = 2.89% and 3.42%
Structure (SMILES) = Cc1ccc(O)c(C)c1-c1cnc2[nH]c(-c3cnc(N4CCC(CN5CCN(c6c(F)cc(NC7CCC(=O)NC7=O)cc6F)CC5)CC4)nc3)cc2c1C#N (racemic); value = -1.54% and -6.58%
Structure (SMILES) = Cc1ncc(-c2cc3c(N)c(-c4c(C)ccc(O)c4C)cnc3[nH]2)cn1; value = -8.64% and -6.06%
Structure (SMILES) = Cc1ccc(O)c(C)c1-c1cnc2[nH]c(-c3cnc(N4CCC(CCN5CCN(c6cc7c(cc6F)c(N6CCC(=O)NC6=O)nn7C)CC5)CC4)nc3)cc2c1C#N; value = 12.7% and 4.65%

Block 4 — SMILES: CCCNC(=O)COc1ccc(I)c(C)c1; action: inhibitor; cell line: CHO-BC cells; notes: unit not given; relative to: uninhibited cells; quantity: remaining transport activity
Target: Sodium-dependent neutral amino acid transporter B(0)AT1 (SLC6A19, Homo sapiens, UniProt Q695T7)
Sequence of UniProt Q695T7 (whole entry, looked up): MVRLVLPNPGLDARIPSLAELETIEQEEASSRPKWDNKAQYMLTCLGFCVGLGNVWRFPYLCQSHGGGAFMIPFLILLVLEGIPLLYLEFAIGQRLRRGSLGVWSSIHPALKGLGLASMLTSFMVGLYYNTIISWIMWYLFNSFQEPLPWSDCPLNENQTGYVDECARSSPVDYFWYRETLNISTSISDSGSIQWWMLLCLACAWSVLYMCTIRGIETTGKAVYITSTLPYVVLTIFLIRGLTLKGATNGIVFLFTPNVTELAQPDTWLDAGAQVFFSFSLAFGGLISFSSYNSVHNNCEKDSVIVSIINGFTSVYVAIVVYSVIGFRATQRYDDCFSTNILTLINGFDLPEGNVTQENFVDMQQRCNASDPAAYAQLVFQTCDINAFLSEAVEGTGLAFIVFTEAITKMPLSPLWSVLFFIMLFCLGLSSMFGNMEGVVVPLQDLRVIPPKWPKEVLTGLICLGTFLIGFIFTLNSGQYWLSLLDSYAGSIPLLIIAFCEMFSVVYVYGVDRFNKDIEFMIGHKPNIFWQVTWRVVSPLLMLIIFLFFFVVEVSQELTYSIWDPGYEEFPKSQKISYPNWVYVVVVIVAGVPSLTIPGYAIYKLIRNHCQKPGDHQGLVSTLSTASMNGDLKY
test = L-[14C]leucine uptake; setting = 0.03 µM, 6 min, 37 °C, added: GPNA 3 mM, JPH203 3 µM; value = 0.77
test = FLIPR membrane potential; setting = 0.003 µM; value = 0.725
test = FLIPR membrane potential; setting = 0.03 µM; value = 0.653

Excerpt of the above (block 3):
Structure (SMILES) = Cc1ccc(O)c(C)c1-c1cnc2[nH]c(-c3cnc(N4CCC(CCN5CCN(c6ccc(N7CCC(=O)NC7=O)cc6F)CC5)CC4)nc3)cc2c1C#N; value = 9.61% and 1.74%
Structure (SMILES) = Cc1ccc(O)c(C)c1-c1cnc2[nH]c(-c3cnc(N4CCC5(CC4)CC(N4CCN(c6cc7c(cc6F)c(N6CCC(=O)NC6=O)nn7C)CC4)CO5)nc3)cc2c1C#N (racemic); value = 8.11% and 8.14%
Structure (SMILES) = Cc1ccc(O)c(C)c1-c1cnc2[nH]c(-c3cnc(N4CCC(CN5CCN(c6ccc(NC7CCC(=O)NC7=O)c(F)c6)CC5)CC4)nc3)cc2c1C#N (racemic); value = 2.89% and 3.42%
Structure (SMILES) = Cc1ccc(O)c(C)c1-c1cnc2[nH]c(-c3cnc(N4CCC(CN5CCN(c6c(F)cc(NC7CCC(=O)NC7=O)cc6F)CC5)CC4)nc3)cc2c1C#N (racemic); value = -1.54% and -6.58%
Structure (SMILES) = Cc1ncc(-c2cc3c(N)c(-c4c(C)ccc(O)c4C)cnc3[nH]2)cn1; value = -8.64% and -6.06%
Structure (SMILES) = Cc1ccc(O)c(C)c1-c1cnc2[nH]c(-c3cnc(N4CCC(CCN5CCN(c6cc7c(cc6F)c(N6CCC(=O)NC6=O)nn7C)CC5)CC4)nc3)cc2c1C#N; value = 12.7% and 4.65%
